Measurements of several laboratories.
Every numbered part comes from another study and shows a few of its results, in no order. Substitutions count along the parent as printed.

Sample 1 — technique: DHFR PCA, deep sequencing; sample: yeast; with: (+)-ABA 0 µM; reference: wild-type fitted maximum; direction: higher = stronger binding
Target: ABI1, truncated, D143A, DHFR fusion (Arabidopsis thaliana)
Setting: methotrexate growth selection, single substitutions
Parent: PYL1, truncated, DHFR fusion (Arabidopsis thaliana); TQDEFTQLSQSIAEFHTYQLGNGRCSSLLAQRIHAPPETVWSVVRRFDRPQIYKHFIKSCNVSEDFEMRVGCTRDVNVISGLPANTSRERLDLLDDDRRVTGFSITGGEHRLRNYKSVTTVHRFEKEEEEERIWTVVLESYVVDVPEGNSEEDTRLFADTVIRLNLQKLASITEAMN; partner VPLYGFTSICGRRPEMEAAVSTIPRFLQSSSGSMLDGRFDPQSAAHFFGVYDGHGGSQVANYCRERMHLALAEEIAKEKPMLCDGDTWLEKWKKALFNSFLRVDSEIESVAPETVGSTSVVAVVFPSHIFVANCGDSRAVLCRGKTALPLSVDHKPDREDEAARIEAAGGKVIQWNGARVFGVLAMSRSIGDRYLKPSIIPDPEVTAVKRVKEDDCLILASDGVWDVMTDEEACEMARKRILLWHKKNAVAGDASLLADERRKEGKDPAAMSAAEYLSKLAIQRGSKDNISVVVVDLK
Under “relative binding score”, `D153A` is recorded as -1.48%.
`D96H` — result for “relative binding score”: -4.7%.
For `H110R`, “relative binding score” read 19.4%.
`R88Y`: “relative binding score” 9.72%.
For `T106H`, “relative binding score” read 0.191%.
For `T173E`, “relative binding score” read -6.43%.
`L164F`: “relative binding score” -5.52%.
`R163M` — result for “relative binding score”: 28.6%.
`D97M` — result for “relative binding score”: 6.74%.
Under “relative binding score”, `A158G` is recorded as -0.326%.

Sample 2 — technique: universal PBM; molecule type: double-stranded DNA, one strand shown; sample: in vitro; concentration: 600 nM; direction: higher = stronger binding
Target: Sal-like protein 4, full length isoform A (SALL4, Homo sapiens, UniProt Q9UJQ4, residues 1-1053)
UniProt Q9UJQ4, sequence (whole entry, looked up): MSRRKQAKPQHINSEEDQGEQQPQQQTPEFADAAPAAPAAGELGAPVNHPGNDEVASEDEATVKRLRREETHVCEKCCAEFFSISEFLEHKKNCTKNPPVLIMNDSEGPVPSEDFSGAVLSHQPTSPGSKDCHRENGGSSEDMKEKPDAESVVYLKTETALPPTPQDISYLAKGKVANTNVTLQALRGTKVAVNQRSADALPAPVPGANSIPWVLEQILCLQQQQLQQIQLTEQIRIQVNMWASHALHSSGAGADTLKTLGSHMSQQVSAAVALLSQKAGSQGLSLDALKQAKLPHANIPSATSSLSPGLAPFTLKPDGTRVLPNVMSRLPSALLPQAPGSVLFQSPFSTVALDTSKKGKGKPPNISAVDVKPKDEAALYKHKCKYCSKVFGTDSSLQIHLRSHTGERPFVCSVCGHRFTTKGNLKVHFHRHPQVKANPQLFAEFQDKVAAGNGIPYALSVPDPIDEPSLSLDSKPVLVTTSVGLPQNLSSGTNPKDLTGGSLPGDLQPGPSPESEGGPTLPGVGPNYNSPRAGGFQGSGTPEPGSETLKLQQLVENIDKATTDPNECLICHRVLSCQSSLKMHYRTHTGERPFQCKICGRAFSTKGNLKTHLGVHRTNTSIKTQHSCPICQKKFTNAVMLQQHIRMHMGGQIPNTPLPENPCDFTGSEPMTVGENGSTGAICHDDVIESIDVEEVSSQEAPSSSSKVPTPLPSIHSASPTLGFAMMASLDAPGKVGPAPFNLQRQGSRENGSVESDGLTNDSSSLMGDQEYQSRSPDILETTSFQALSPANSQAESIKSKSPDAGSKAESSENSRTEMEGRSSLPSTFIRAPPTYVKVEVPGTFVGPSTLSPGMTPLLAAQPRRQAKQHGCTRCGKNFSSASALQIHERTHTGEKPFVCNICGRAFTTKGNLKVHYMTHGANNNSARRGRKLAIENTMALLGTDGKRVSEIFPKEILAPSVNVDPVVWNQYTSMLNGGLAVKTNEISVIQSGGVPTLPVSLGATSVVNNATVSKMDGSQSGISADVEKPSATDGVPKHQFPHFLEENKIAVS
Setting: 8-mer, flanks averaged, mean of replicates
With `GAACATAA` the E-score was 0.291.
The E-score of `GGCCTCGA` is reported as -0.261.
`CTTGAAGA` has an E-score of 0.143.
For `AGCGGGAA`, the E-score was -0.151.
For `GTGTGACA`, the E-score was -0.0423.
`GACAAGGA` has an E-score of 0.207.
For `CATCCTGA`, the E-score was -0.00256.
For `CCAGTTAG`, the E-score was -0.0879.
For `AAACCCGG`, the E-score was -0.272.
The E-score of `CTTGTCAA` is reported as 0.234.
The E-score of `AAAAGTCA` is reported as 0.0778.
For `GGTTAACA`, the E-score was 0.233.
The E-score of `CTCGGCAC` is reported as -0.33.
`ATACAGCG` gave an E-score of 0.112.
`GCTGTCCC` has an E-score of -0.206.
With `AGCCGTGA` the E-score was -0.0494.
`GCGGCACA` has an E-score of -0.169.
`CGTGACCC` has an E-score of -0.269.
`CAAAGATC` has an E-score of 0.0657.
`TAACCTCA` has an E-score of 0.136.
With `ACTTAAAT` the E-score was 0.274.
For `AGCACAGA`, the E-score was 0.154.
`CACAACCC` gave an E-score of -0.23.

Sample 3 — technique: RNA Bind-n-Seq; molecule type: RNA; sample: in vitro; concentration: not given; reference: input RNA pool; direction: higher = stronger binding
Target: RING finger protein unkempt homolog, zinc fingers 1-6, GST-SBP tag (UNK, Homo sapiens, UniProt Q9C0B0, residues 30-357)
UniProt Q9C0B0, sequence (30-357, looked up): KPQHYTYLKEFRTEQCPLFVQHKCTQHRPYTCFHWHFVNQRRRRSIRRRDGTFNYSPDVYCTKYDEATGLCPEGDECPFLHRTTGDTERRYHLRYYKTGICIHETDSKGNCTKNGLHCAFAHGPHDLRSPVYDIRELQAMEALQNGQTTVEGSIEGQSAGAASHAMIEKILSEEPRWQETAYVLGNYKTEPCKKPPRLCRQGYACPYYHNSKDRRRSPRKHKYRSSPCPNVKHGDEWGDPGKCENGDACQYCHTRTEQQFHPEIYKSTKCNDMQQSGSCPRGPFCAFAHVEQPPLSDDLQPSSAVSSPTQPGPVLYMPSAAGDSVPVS
Setting: RNA with constant flanks, human and mouse sites, ends assumed
Constant ends, left off below: GGGAGUUCUACAGUCCGACGAUC … CAACAGAGGAUUGAGCAUCA
`GAGUAGGGUUCCAGCUCUGGGACAUUGUGCUCAGGAAUUUGAAAACGCUGCUAUACUUACUCUGGUUACUACAUUUCUUCCACUCCCCUUUCCCCUACCUGCCUUAACCAAGGCUCAUAC` gave a bound/input enrichment of 0.321 ratio.
The bound/input enrichment of `CCAGAAUCAAUGGGGUUUAUCAUUUAUAAAUGAGCCCAGUGCUGGCCCAGAGACUGUUAUUGGAAAGUCAUCAGAUCAUAAAGUGAUGGAAGUGACAUUUCAAGGAGAAUAUCCUGCCAC` is reported as 0.146 ratio.
`AAGGGGGAGGUCGCCCCCAAGGAGACCCCCAAGAAGAAGAAGAAAUUCUCUUUCAAGAAGCCUUUCAAAUUGAGUGGCCUGUCCUUCAAGAGAAAUCGGAAGGAGGGUGGGGGUGAUUCC` has a bound/input enrichment of 0.195 ratio.
For `UAAUAUGACUCUCCAUAUUUUGGUACCAAUUCUGAGACUGUAUGAAUUUUCAGGUGGAACUUUAGCACACACUGAAGCAAAGUUGUGAAGUGCAGGGCGGGAGGUGGGCGUGAGCUUUCU`, the bound/input enrichment was 0.249 ratio.
`UUUCUACUGCAGCAAACGAUGCUAAGAAUUAAGGAUCCUAAGAAGUCCCUGGAUUUUUAUACGAGGGUUCUUGGACUGACCCUCCUGCAGAAGCUUGACUUCCCUGCUAUGAAGUUCUCG` has a bound/input enrichment of 0.292 ratio.
The bound/input enrichment of `UGAUGAACGCAGACACGAUGAGCUCCCUGAAGACAUCAACAACUUUGACGAAGACAUGAACAGGCAGUUUGAGAAUAUGAACCUGCUGGAUCAGGUGGAGUUGCUUGCACAGAGCUACAG` is reported as 0.109 ratio.
The bound/input enrichment of `AGCAUGGACUCGAAAGCAAAUAUUGUACAUGGUCUAUCAGUCUUGGAAAUCUGUCUUAUAAUAGCAAUGAAACAUUUAAAUGACAUCUAUGAGGAAGAGCCAUUUAAUUUUCAAAUGGUC` is reported as 0.413 ratio.
With `UUUCUUAAAUCUCCCUAAAUCAAAGUGGAUGUCACAUACGGAUCUUAAGGAUGGAAGAAUGUAAUGACAUUUGAAAGCUUUACAUAUGUGGUUCCCGACAUUCACCCACAUUUAUCUAUU` the bound/input enrichment was 0.24 ratio.
For `CUUCCUUUCUGACCCUUUCCGGGCGUUCAAGAUGUCGAAGCGAGGACGCGGUGGGUCCUCCGGGGCGAAAUUCCGGAUUUCCCUGGGUCUUCCGGUCGGAGCUGUGAUCAACUGUGCAGA`, the bound/input enrichment was 0.123 ratio.
The bound/input enrichment of `GACAACUCUGUCCCUACGACCGGGUCGUUAAGCGCCGUUGCAGCCAUGGCUACUGCUCUAGGAUUUCGCUGCCUUUUCCGAACGCGACCUGCGCCGCUCUGUCGGCACGUCGACCGGCUG` is reported as 0.137 ratio.
`GUUCUGGAUAAUUCUGGCUUUGAACUGAUUACGGAUUUAGUAUUGGCGGACUUUUUAUUUUCCUCGGAGUUAGCUACUGAGAUUCAUUUCCAUGGGAAAAGCAUCCCAUGGUUUGUGUCU` has a bound/input enrichment of 0.253 ratio.

Sample 4 — technique: protein binding microarray; molecule type: double-stranded DNA, one strand shown; sample: in vitro; concentration: not given; reference: not given; direction: higher = stronger binding
Target: Histone acetyltransferase KAT6A, both winged helices, GST fusion (KAT6A, Homo sapiens, UniProt Q92794, residues 1-181)
Setting: 8-mer, flanks averaged, mean of 2 arrays, mostly near background
Construct (chain): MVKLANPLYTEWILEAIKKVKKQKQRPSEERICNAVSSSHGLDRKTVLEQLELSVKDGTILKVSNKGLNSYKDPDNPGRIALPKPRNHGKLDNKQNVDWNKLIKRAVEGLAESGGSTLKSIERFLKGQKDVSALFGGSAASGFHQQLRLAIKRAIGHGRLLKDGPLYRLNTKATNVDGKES
For `GCCCAATA`, the E-score was -0.121.
The E-score of `ATGACAGG` is reported as -0.107.
The E-score of `ACGTTGTG` is reported as -0.0182.
For `ACTACGAC`, the E-score was -0.122.
With `ACCGGAGC` the E-score was 0.123.
For `ATGGAGAC`, the E-score was -0.166.
`AGGTGACT` gave an E-score of -0.205.
`AGGATTCC` has an E-score of -0.182.
For `CAACAATA`, the E-score was -0.0739.
The E-score of `AGAACATA` is reported as 0.0167.
For `CATTAGGA`, the E-score was -0.117.
With `CATGGTGA` the E-score was -0.0192.
With `ATTATCCC` the E-score was -0.14.
For `GACTAGGA`, the E-score was -0.0276.
With `CCGGTACA` the E-score was 0.177.
`GCAGCTGC` gave an E-score of 0.144.
`AATTCGGG` has an E-score of 0.00802.
For `GAACAGAC`, the E-score was 0.00737.
`CCGACACA` gave an E-score of -0.0556.
For `AACAGTAA`, the E-score was -0.0144.
With `CTCATTTC` the E-score was -0.0661.

Sample 5 — target: CCNA2, cyclin fold, Cln2 fusion (human); technique: yeast growth competition, sequencing; sample: yeast; setting: weak parent motif; reference: not given; direction: higher = stronger binding
Parent: DNAH7 docking peptide (human); HELFQRLDFDNDG
For `D12A`, “normalised enrichment score” read 0.138.
`F9A` — result for “normalised enrichment score”: -0.526.
`G13A` — result for “normalised enrichment score”: -0.0792.
`F4A`: “normalised enrichment score” 0.115.
Under “normalised enrichment score”, `N11A` is recorded as -0.157.
`Q5A` — result for “normalised enrichment score”: -0.0294.

Sample 6 — target: UBE2R2 UBC core domain (UniProt Q712K3); technique: yeast two-hybrid; sample: yeast; setting: mostly zero background; reference: not given; direction: higher = stronger interaction
B1: DTX2 RING domain (UniProt Q86UW9); chain EELKVPPDEDCIICMEKLSTASGYSDVTDSKAIGSLAVGHLTKCSHAFHLLCLLAMYCNGNKDGSLQCPSCKTIYGEKTGTQ
B2: RNF133 RING domain (UniProt Q8WVZ7); chain DEEINPNGDSCVICFERYKPNDIVRILTCKHFFHKNCIDPWILPHGTCPICKCDILKVLGIQ
B3: RNF19A RING domain (UniProt Q9NV58); chain ISKQIGDFIECPLCLLRHSKDRFPDIMTCHHRSCVDCLRQYLRIEISESRVNISCPECTERFNPHDIR
B4: ZMIZ2 RING domain (UniProt Q8NF64); chain GTIPGTPGPNGEDGVEQTAIKVSLKCPITFRRIQLPARGHDCRHIQCFDLESYLQLNCERGTWRCPVCNKTALLEGLEVDQYMLGILIYIQNSDYEEITIDPTCSWK
B5: TRIM62 RING domain (UniProt Q9BVG3); chain MACSLKDELLCSICLSIYQDPVSLGCEHYFCRRCITEHWVRQEAQGARDCPECRRTFAEPALAP
B6: RBCK1 RING domain (UniProt Q9BYM8); chain SLVLNTEPAECPVCYSVLAPGEAVVLRECLHTFCRECLQGTIRNSQEAEVSCPFIDNTYSCSGKLLEREIK
B7: SH3RF1 RING domain (UniProt Q7Z6J0); chain DESALLDLLECPVCLERLDASAKVLPCQHTFCKRCLLGIVGSRNELRCPECRTLVGSGVEEL
Target sequence (chain): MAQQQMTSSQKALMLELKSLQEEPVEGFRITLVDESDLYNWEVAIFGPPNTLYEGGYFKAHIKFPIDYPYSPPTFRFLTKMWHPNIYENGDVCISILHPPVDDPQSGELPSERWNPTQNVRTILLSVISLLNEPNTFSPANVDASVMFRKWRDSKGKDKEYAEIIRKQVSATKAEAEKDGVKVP
For `GSDDEEIPFKCFICRQSFQNPVVTKCRHYFCESCALQHFRTTPRCYVCDQQTNGVFNPA (RNF113A RING domain (UniProt O15541))`, “lacZ reporter activity” read 0.
`AVPSGLEENLCKICMDSPIDCVLLECGHMVTCTKCGKRMNECPICRQYVIRAVHVF (RFFL RING domain (UniProt Q8WZ73))` — result for “lacZ reporter activity”: 0.
Under “lacZ reporter activity”, `B1 (DTX2 RING domain)` is recorded as 0.
`KETIKKTTKPCPRCHVPVEKNGGCMHMKCPQPQCRLEWCWNCGCEWNRVCMG (PRKN RING domain (UniProt O60260))` — result for “lacZ reporter activity”: 0.
Under “lacZ reporter activity”, `B2 (RNF133 RING domain)` is recorded as 0.
For `B3 (RNF19A RING domain)`, “lacZ reporter activity” read 0.
`B4 (ZMIZ2 RING domain)`: “lacZ reporter activity” 0.
Under “lacZ reporter activity”, `B5 (TRIM62 RING domain)` is recorded as 0.
Under “lacZ reporter activity”, `B6 (RBCK1 RING domain)` is recorded as 0.
`GSRLQEINDVCAICYHEFTTSARITPCNHYFHALCLRKWLYIQDTCPMCHQKVYIEDDIK (RNF139 RING domain (UniProt Q8WU17))` — result for “lacZ reporter activity”: 0.
Under “lacZ reporter activity”, `B7 (SH3RF1 RING domain)` is recorded as 0.

For quick reference, copied from above (sample 4):
With `ACCGGAGC` the E-score was 0.123.
For `ACTACGAC`, the E-score was -0.122.
For `CATTAGGA`, the E-score was -0.117.
For `ATGGAGAC`, the E-score was -0.166.
`GCAGCTGC` gave an E-score of 0.144.
The E-score of `AGAACATA` is reported as 0.0167.
With `ATTATCCC` the E-score was -0.14.
